Assay results of several laboratories.
Parts stem from different laboratories: compare values within a part only.
Chain of UniProt O00506 (whole entry, looked up): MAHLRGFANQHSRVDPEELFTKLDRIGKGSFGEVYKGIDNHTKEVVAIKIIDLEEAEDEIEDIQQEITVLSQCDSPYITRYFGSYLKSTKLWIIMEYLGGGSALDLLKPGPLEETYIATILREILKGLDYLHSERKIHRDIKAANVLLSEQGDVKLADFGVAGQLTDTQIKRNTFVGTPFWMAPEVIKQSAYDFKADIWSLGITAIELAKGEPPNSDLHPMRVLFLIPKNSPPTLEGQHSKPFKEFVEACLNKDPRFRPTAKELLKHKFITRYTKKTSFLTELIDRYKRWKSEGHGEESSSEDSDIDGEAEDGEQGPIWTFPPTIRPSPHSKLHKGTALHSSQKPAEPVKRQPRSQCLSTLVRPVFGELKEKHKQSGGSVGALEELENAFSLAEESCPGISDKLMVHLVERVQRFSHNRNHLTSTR
Chain of UniProt P07948 (whole entry, looked up): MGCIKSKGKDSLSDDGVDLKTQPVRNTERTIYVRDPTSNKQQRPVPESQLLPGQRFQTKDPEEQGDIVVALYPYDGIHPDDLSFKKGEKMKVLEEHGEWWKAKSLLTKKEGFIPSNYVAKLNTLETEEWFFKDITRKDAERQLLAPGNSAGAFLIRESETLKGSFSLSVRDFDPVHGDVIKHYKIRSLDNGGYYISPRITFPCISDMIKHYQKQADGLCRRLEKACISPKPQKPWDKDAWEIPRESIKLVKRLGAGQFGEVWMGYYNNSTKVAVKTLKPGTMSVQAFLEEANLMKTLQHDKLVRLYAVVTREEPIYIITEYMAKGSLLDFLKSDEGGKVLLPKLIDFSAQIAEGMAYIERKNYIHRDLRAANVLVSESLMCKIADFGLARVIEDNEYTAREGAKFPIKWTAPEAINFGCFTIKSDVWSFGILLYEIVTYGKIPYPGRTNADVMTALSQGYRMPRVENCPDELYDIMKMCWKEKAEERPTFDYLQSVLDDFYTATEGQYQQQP
Chain of UniProt P16591 (whole entry, looked up): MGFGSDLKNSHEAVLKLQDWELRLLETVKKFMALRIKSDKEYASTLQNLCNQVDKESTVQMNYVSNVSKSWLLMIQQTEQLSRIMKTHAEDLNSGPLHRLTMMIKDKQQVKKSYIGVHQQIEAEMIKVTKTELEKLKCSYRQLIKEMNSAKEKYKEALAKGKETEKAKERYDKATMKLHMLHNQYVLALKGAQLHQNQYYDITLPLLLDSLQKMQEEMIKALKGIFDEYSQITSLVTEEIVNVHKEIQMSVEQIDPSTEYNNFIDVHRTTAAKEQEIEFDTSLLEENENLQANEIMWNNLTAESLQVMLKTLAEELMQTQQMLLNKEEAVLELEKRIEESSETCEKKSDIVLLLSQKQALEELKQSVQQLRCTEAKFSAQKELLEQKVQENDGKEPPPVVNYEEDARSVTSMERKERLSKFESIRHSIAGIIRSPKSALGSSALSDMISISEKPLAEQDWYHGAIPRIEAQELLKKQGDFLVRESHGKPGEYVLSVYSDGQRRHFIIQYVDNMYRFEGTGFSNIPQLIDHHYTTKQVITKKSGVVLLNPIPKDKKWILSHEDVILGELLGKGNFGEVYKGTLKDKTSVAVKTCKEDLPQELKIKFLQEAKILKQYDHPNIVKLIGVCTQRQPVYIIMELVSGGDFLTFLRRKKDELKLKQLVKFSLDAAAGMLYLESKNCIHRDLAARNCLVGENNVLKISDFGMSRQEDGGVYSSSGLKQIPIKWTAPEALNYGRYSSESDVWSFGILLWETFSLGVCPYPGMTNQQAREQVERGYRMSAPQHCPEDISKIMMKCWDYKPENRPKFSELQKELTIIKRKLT
Chain of UniProt P29376 (whole entry, looked up): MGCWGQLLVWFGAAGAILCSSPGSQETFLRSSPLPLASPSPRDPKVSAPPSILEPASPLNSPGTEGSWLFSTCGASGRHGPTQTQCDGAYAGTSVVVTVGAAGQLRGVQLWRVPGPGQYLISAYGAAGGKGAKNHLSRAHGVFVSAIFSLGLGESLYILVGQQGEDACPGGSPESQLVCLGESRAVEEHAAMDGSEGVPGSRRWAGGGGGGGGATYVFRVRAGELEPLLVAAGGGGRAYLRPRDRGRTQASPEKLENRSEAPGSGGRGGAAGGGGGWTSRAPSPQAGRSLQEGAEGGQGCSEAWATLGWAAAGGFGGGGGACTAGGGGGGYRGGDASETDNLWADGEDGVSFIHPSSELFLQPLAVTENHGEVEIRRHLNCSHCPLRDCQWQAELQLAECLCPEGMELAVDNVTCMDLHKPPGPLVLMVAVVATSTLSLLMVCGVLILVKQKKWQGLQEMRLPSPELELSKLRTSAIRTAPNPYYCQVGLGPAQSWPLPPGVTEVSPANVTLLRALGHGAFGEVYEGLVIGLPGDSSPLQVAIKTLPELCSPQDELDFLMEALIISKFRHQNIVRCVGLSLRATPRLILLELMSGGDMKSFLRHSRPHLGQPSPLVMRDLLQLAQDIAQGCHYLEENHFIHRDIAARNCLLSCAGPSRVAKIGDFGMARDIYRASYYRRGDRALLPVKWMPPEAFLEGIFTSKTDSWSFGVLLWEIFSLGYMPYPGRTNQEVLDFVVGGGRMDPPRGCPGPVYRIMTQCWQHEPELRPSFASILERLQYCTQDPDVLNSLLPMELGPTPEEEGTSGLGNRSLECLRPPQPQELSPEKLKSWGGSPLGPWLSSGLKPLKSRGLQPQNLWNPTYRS
Chain of UniProt Q9Y243 (whole entry, looked up): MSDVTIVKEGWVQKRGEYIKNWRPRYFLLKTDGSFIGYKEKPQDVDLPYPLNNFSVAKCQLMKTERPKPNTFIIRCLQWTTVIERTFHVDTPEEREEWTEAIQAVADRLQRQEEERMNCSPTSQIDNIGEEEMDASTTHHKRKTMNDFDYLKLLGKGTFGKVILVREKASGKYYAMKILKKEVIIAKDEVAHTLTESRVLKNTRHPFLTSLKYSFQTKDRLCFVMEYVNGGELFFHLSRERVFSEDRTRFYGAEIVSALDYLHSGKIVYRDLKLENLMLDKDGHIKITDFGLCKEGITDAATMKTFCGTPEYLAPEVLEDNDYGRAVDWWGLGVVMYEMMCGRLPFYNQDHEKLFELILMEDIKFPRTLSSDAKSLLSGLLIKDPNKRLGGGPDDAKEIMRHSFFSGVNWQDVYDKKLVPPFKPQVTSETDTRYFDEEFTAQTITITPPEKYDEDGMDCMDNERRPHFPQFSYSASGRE
Chain of UniProt P41595 (whole entry, looked up): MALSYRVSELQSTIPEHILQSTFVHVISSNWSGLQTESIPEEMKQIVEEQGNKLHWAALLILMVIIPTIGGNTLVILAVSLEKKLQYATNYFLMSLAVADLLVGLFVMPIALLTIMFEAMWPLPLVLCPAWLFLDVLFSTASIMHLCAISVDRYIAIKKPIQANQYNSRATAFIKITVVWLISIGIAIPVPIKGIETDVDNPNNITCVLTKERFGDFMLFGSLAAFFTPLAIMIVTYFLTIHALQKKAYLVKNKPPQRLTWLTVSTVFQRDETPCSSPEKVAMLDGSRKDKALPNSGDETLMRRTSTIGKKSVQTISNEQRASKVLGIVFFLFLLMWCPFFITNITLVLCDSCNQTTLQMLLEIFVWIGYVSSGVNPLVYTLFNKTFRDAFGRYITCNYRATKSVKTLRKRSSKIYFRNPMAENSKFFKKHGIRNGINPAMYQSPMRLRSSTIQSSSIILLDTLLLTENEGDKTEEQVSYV

Block 1 — read-out: enzyme activity; action: inhibitor; tested at: 1 µM; quantity: inhibition
SMILES: CC#CC(=O)N1CCC[C@H]1c1nc(-c2ccc(C(=O)Nc3ccccn3)cc2)c2c(N)nccn12
Mitogen-activated protein kinase kinase kinase kinase 4 (MAP4K4, Homo sapiens, UniProt O95819): 0%
Receptor-type tyrosine-protein kinase FLT3 (FLT3, Homo sapiens, UniProt P36888, ITD): 0%
Fibroblast growth factor receptor 2 (FGFR2, Homo sapiens, UniProt P21802): 2%
Tyrosine-protein kinase Fer (FER, Homo sapiens, UniProt P16591): 0%
Tyrosine-protein kinase Lyn (LYN, Homo sapiens, UniProt P07948): 11%
STE20/SPS1-related proline-alanine-rich protein kinase (STK39, Homo sapiens, UniProt Q9UEW8): 4%
cAMP-dependent protein kinase catalytic subunit alpha (PRKACA, Homo sapiens, UniProt P17612): 6%

Block 2 — cell line: HaCaT; tested at: 100 µM; time: 36 h; quantity: viability
Oc1ccc(/C=C/c2cc(O)cc(O)c2)cc1: 67.9%
COc1ccnc(C[S+]([O-])c2nc3ccc(OC(F)F)cc3[nH]2)c1OC (centres unmarked): 60.5%
CNC(=O)c1c(C)oc2cc(Oc3ncnc4cc(OC)c(OC)cc34)ccc12: 97.2%
CN[C@@H]1[C@@H](O)[C@@H](O[C@@H]2[C@@H](O)[C@H](O[C@H]3OC(CN)=CC[C@H]3N)[C@@H](N)C[C@H]2N)OC[C@]1(C)O: 89%
Nc1nc2c(ncn2COCCO)c(=O)[nH]1: 94.5%
COc1ccc(OC)c(C(O)CNC(=O)CN)c1 (centres unmarked): 97.7%
O=c1cc[nH]c(=S)[nH]1: 92%
NC[C@H]1O[C@H](O[C@H]2[C@H](O)[C@@H](O[C@H]3O[C@H](CO)[C@@H](O)[C@H](N)[C@H]3O)[C@H](N)C[C@@H]2N)[C@H](O)[C@@H](O)[C@@H]1O: 97.1%

Block 3 — method: competitive binding panel; tested at: 1 µM; reference: vehicle; quantity: remaining binding
SMILES: COc1ccc2[nH]c3c4[nH]c5ccc(OC)cc5c4c4c(c3c2c1)C(=O)NC4=O
Serine/threonine-protein kinase STK11 (STK11, Homo sapiens, UniProt Q15831); refers to: LKB1: 99%
RAC-gamma serine/threonine-protein kinase (AKT3, Homo sapiens, UniProt Q9Y243): 98%
Serine/threonine-protein kinase SIK2 (SIK2, Homo sapiens, UniProt Q9H0K1): 9.9%
Macrophage colony-stimulating factor 1 receptor (CSF1R, Homo sapiens, UniProt P07333): 58%
Serine/threonine-protein kinase 25 (STK25, Homo sapiens, UniProt O00506); refers to: YSK1: 89%
Phosphorylase b kinase gamma catalytic chain, skeletal muscle/heart isoform (PHKG1, Homo sapiens, UniProt Q16816): 12%
Leukocyte tyrosine kinase receptor (LTK, Homo sapiens, UniProt P29376): 58%
Epidermal growth factor receptor (EGFR, Homo sapiens, UniProt P00533, del752-759): 68%
Epidermal growth factor receptor (EGFR, Homo sapiens, UniProt P00533, del746-750): 20%

Mixed results — read-out: binding
CCOCCn1cc(C(=O)Nc2ccc(-n3nc(-c4cccnc4)cc3C(F)(F)F)cn2)ccc1=O  inhibition (5-hydroxytryptamine receptor 2B (HTR2B, Homo sapiens, UniProt P41595); radioligand binding; 10 µM): -11.7%
c1ccc(C2CCN(c3cnc4c(N5CCOCC5)nccn34)CC2)cc1  Ki (GABAA receptor): 1.82 µM

Some of these lines once more (block 2):
CNC(=O)c1c(C)oc2cc(Oc3ncnc4cc(OC)c(OC)cc34)ccc12: 97.2%
CN[C@@H]1[C@@H](O)[C@@H](O[C@@H]2[C@@H](O)[C@H](O[C@H]3OC(CN)=CC[C@H]3N)[C@@H](N)C[C@H]2N)OC[C@]1(C)O: 89%
Nc1nc2c(ncn2COCCO)c(=O)[nH]1: 94.5%
